Measured values collected from several papers.
Protocols differ between the studies behind these lines. ± marks the error that the study gave.

Structure (SMILES) | assay | test system | conditions | quantity | value
C=C(C)[C@@H]1CC[C@]2(NCCN3CCS(=O)(=O)CC3)CC[C@]3(C)[C@H](CC[C@@H]4[C@@]5(C)CC=C(C6=CC[C@@](CF)(C(=O)O)CC6)C(C)(C)[C@@H]5CC[C@]43C)[C@@H]12 |  | HIV-1-positive treatment-naive adults, plasma | oral, 140 mg single dose, day 1, with food | tmax | 5.51 h
Oc1ccc2c3c(cnc2c1)-c1ccc(C(F)(F)F)cc1O[C@@H]3c1ccc(OCCN2CC(CF)C2)cc1 | refers to: total radioactivity | healthy women, fasted, plasma | oral, 400 mg [14C]-labelled, single dose, median | tmax | 2 h
Cc1ccc(NC(=O)c2ccc(CN3CCN(C)CC3)cc2)cc1Nc1nccc(-c2cncc(-c3oncc3C)c2)n1 |  | healthy volunteers, plasma | oral, 12.5 mg once daily, day 1, 7-day dosing, mean | Tmax | 6.67 h
C[C@@H](N)c1cc(Cl)ccc1Cn1c(=S)[nH]c(=O)c2[nH]ccc21 |  | healthy Japanese volunteers, plasma | oral, 10 mg once daily, day 1, median | tmax | 0.51 h
CC1=C2C[C@H]3[C@@H](CC[C@@H]4C[C@H](NS(C)(=O)=O)CC[C@@]43C)[C@@H]2CC[C@@]2(C1)O[C@@H]1C[C@H](C)CN[C@H]1[C@H]2C |  | patients, plasma | oral, 130 mg single, day -7, cycle 1 | Tmax | 6.44 h
Cc1nc(-c2ccc(OCC(C)C)c(C#N)c2)sc1C(=O)O |  | pediatric patients, plasma | oral, 40 mg once daily, fed, PopPK post hoc, weight at least 40 kg | Tmax at steady state | 1.35 ± 0.51 h
COc1ccc(Oc2cc(N(C)CCOc3ccc(CC4SC(=O)NC4=O)cc3)ncn2)cc1 (stereo not drawn) |  | healthy male, plasma | oral, alone or with empagliflozin | Tmax at steady state | < 2.5 h
CC[C@H](C)[C@H](NC(=O)[C@H](Cc1ccccc1)NC(=O)[C@H](CCC(=O)O)NC(=O)[C@H](CCCCNC(=O)COCCOCCNC(=O)COCCOCCNC(=O)CC[C@H](NC(=O)CCCCCCCCCCCCCCCCC(=O)O)C(=O)O)NC(=O)[C@H](C)NC(=O)[C@H](C)NC(=O)[C@H](CCC(N)=O)NC(=O)CNC(=O)[C@H](CCC(=O)O)NC(=O)[C@H](CC(C)C)NC(=O)[C@H](Cc1ccc(O)cc1)NC(=O)[C@H](CO)NC(=O)[C@H](CO)NC(=O)[C@@H](NC(=O)[C@H](CC(=O)O)NC(=O)[C@H](CO)NC(=O)[C@@H](NC(=O)[C@H](Cc1ccccc1)NC(=O)[C@@H](NC(=O)CNC(=O)[C@H](CCC(=O)O)NC(=O)C(C)(C)NC(=O)[C@@H](N)Cc1cnc[nH]1)[C@@H](C)O)[C@@H](C)O)C(C)C)C(=O)N[C@@H](C)C(=O)N[C@@H](Cc1c[nH]c2ccccc12)C(=O)N[C@@H](CC(C)C)C(=O)N[C@H](C(=O)N[C@@H](CCCNC(=N)N)C(=O)NCC(=O)N[C@@H](CCCNC(=N)N)C(=O)NCC(=O)O)C(C)C | LC-MS/MS | healthy fasting men, plasma | oral, 10 mg, taken with 240 mL water | tmax | 1.5 h
CS(=O)(=O)n1cc2c(n1)CN([C@H]1CO[C@H](c3cc(F)ccc3F)[C@@H](N)C1)C2 |  | healthy Japanese men, plasma | oral, 50 mg once weekly, day 1 | Tmax | 1.58 h
Cc1ccc(Sc2ccccc2N2CCNCC2)c(C)c1 |  | healthy men, plasma | oral, 10 mg once daily, fed, day 1 | Tmax | 12.7 h
COc1cc(OC)c(/C=C/S(=O)(=O)Cc2ccc(OC)c(NCC(=O)O)c2)c(OC)c1 |  | cancer patients, phase I, plasma | oral, 280 mg twice daily, day 21 cycle 1 | Tmax | 0.83 ± 0.58 h
CC[C@H](C)[C@H](NC(=O)[C@H](Cc1ccccc1)NC(=O)[C@H](CCC(=O)O)NC(=O)[C@H](CCCCNC(=O)COCCOCCNC(=O)COCCOCCNC(=O)CC[C@H](NC(=O)CCCCCCCCCCCCCCCCC(=O)O)C(=O)O)NC(=O)[C@H](C)NC(=O)[C@H](C)NC(=O)[C@H](CCC(N)=O)NC(=O)CNC(=O)[C@H](CCC(=O)O)NC(=O)[C@H](CC(C)C)NC(=O)[C@H](Cc1ccc(O)cc1)NC(=O)[C@H](CO)NC(=O)[C@H](CO)NC(=O)[C@@H](NC(=O)[C@H](CC(=O)O)NC(=O)[C@H](CO)NC(=O)[C@@H](NC(=O)[C@H](Cc1ccccc1)NC(=O)[C@@H](NC(=O)CNC(=O)[C@H](CCC(=O)O)NC(=O)C(C)(C)NC(=O)[C@@H](N)Cc1cnc[nH]1)[C@@H](C)O)[C@@H](C)O)C(C)C)C(=O)N[C@@H](C)C(=O)N[C@@H](Cc1c[nH]c2ccccc12)C(=O)N[C@@H](CC(C)C)C(=O)N[C@H](C(=O)N[C@@H](CCCNC(=N)N)C(=O)NCC(=O)N[C@@H](CCCNC(=N)N)C(=O)NCC(=O)O)C(C)C |  | Caucasian subjects | subcutaneous once weekly, 0.5 mg, median | tmax at steady state | 36 h
